# Experimental data pooled from the literature.
# Lines come from different studies, so protocols differ. Numbers after ± are the reported error.
Structure (SMILES),target or system,test,system,setting,how to read,quantity,result
C[C@]1(CO)Cc2ncn(-c3ccc(C#N)c(Cl)c3)c2C(=O)O1,,,human,"concentration not given, European food-effect part",,"disorders, nervous system, drug related",25%
CC(C)(C)NCC(O)c1cc(O)cc(O)c1 (stereo not shown),,,human,inhaled,,lung deposited fraction,0.23
CCN(CCO)CCCC(C)Nc1ccnc2cc(Cl)ccc12 (stereo not shown),,item: Anorexia grade 1,newly diagnosed glioblastoma patients,"oral, 400 mg/dose, with radiotherapy and temozolomide",,patients with adverse event,29%
Nc1ncnc2c1ncn2[C@@H]1O[C@@H]2COP(=O)([S-])O[C@@H]3[C@H](O)[C@@H](COP([O-])(=S)O[C@H]2[C@H]1O)O[C@H]3n1cnc2c(N)ncnc21.[Na+].[Na+] (stereo partly shown),,,"non-tumor-bearing mice, blood","intravenous, 1 mg/kg, toxicity study",,RDW-SD,20.3 ± 0.83 fL
CC[C@H](C)[C@H](NC(=O)[C@H](CC(C)C)NC(=O)[C@H](CCCCN)NC(=O)[C@@H](NC(=O)[C@H](C)NC(=O)[C@H](CCC(=O)O)NC(=O)[C@H](Cc1c[nH]cn1)NC(=O)[C@@H](NC(=O)[C@H](CCCCN)NC(=O)[C@H](CCC(N)=O)NC(=O)[C@H](Cc1ccccc1)NC(=O)[C@@H](NC(=O)[C@H](CCCCN)NC(=O)[C@H](CCCCN)NC(=O)[C@H](CC(C)C)NC(=O)[C@H](C)N)C(C)C)[C@@H](C)CC)[C@@H](C)CC)C(N)=O,,hemolysis,mouse erythrocytes,,,HC10,128 µM
CCc1ccc(CC/C=C/c2ccc3c(c2)C(=O)CC3)cc1,,,"Sprague-Dawley rat, female, serum","oral, 450 mg/kg/day, 14 days",,sodium,141 mM
Cn1nc(NS(C)(=O)=O)c2c(Cl)ccc(-n3c([C@H](Cc4cc(F)cc(F)c4)NC(=O)Cn4nc(C(F)F)c5c4C(F)(F)[C@@H]4C[C@H]54)nc4nc(OCCC(F)(F)F)ccc4c3=O)c21,,,human,"oral, dose not given, powder in bottle single doses",,"participants, with AEs, drug-related",7%
COc1ccc2nc3cc(Cl)ccc3c(Nc3cc(CN4CCCC4)c(O)c(CN4CCCC4)c3)c2n1,,,"mouse, blood","intraperitoneal, 14 mg/kg",,neutrophil count,1.47 10⁹/L
Cc1ccc(-c2cccc(CN3CCCC(NC(=O)c4c(C)noc4C)C3)c2)cc1Cl (stereo not shown),Vero-E6,CellTiter-Glo ATP,,"concentration not given, 72 h, first round 5-point","relative to: DMSO 0%, hyamine -100%, more negative, more toxic",cytotoxicity efficacy,0%
O=C(Nc1ccccc1)C1CCN(C(=O)Oc2cccnc2)CC1,,psychotropic effects VAS,healthy women,60 mg,"relative to: pre-dose baseline, direction not given",change in Reality score,1.6
COc1ccc(-n2c(SCCCN3C(=O)c4cccc5cccc(c45)C3=O)nnc2-c2ccncc2)cc1,human coronavirus OC43,virus-induced cell killing,MRC-5,screen,,maximum inhibition,12.7%
COc1ncnn2ccc(-c3cnc4nc(C)n(Cc5nnc([C@@H](C)F)o5)c4c3)c12,,phase 1 trial,human patients,"oral, dose not given, CTCAE grade 5",,patients with decreased WBC count,0%
O=S(=O)(Nc1ccccc1)c1ccc(NC(=S)Nc2ccccc2)cc1,,item: BUN,"female mouse, blood","oral, 20 mg/kg daily, 14 days",,blood chemistry level,15.2 mg/dL
COc1ncccc1-c1cnn2ccc(N3CCN(C(=O)OC(C)C)CC3)nc12,,,"rat, CCI mechanical hyperalgesia model, brain","oral, 10 mg/kg, 210 min",,drug concentration,4.5 µM
CC(C)C[C@H](NC(=O)[C@H](CCCCN)NC(=O)OCC1c2ccccc2-c2ccccc21)C(=O)N[C@H](C(=O)N[C@@H](Cc1ccccc1)C(=O)N[C@@H](Cc1ccccc1)C(=O)N[C@@H](CCCCN)C(=O)NCC(=O)N[C@@H](Cc1ccccc1)C(=O)N[C@@H](C)C(=O)N[C@@H](Cc1c[nH]c2ccccc12)C(=O)N[C@@H](CC(N)=O)C(=O)N[C@H](C(=O)N[C@H]1CSSC[C@@H](C(=O)N[C@@H](Cc2c[nH]cn2)C(=O)N[C@@H](CCCNC(=N)N)C(=O)N[C@@H](CCCNC(=N)N)C(=O)N[C@@H](C)C(=O)N[C@@H](CC(N)=O)C(N)=O)NC(=O)[C@H](C(C)C)NC(=O)[C@H](CCCNC(=N)N)NC(=O)[C@H](C(C)C)NC(=O)CNC(=O)[C@H](CC(N)=O)NC(=O)[C@H](CCCNC(=N)N)NC(=O)[C@H](Cc2ccc(O)cc2)NC(=O)[C@H](C(C)C)NC1=O)C(C)C)C(C)C,,,"ICR mice, blood","intraperitoneal, 5 mg/kg, day 5",,haematocrit,41.2 ± 0.91%
COc1cc2c(Oc3ccc4[nH]c(C)cc4c3F)ccnc2cc1OCC1(N)CC1,,,paediatric refractory sarcoma patients,10 mg,,QTc prolongation incidence,0%
COC[C@]12CN(C)[C@@H]3[C@@H]4[C@H](OC)[C@H]1[C@@]3([C@@H](OC)C[C@H]2O)[C@@H]1C[C@@]2(O)[C@H](OC(=O)c3ccccc3)[C@@H]1[C@]4(OC(C)=O)[C@@H](O)[C@@H]2OC,,,"Sprague-Dawley rat, plasma","oral, dose not given, with NADES in PCW extract",,half-life,4.01 ± 0.337 h
COc1ccc([C@@H]2CC(=O)c3c(O)cc(O)cc3O2)cc1O,,,"Sprague-Dawley rat, male, obese, faeces","oral, 100 mg/kg neohesperidin, 48 h",relative to: dose,faecal recovery,1.23 ± 0.04%
O=C(O)CCCOc1ccc(F)cc1-c1cc(-c2ccccc2C(F)(F)F)n(-c2ccccc2)n1,,,"female Crl:CD(SD) rats, kidneys","intravenous, 25 µg/kg, 1 d",,organ weight,1.69 ± 0.1 g
CCN1[C@@H](C(=O)NC23CCC(C(=O)O)(CC2)CC3)[C@H](c2cccc(Cl)c2F)[C@]2(C(=O)Nc3cc(Cl)ccc32)C12CCCCC2,,,patients with advanced solid tumours,"oral, 100 mg",,grade ≥3 Thrombocytopenia incidence,18.2%
CN1CC[C@@H](c2c(O)cc(O)c3c(=O)cc(-c4ccc(C(F)(F)F)cc4Cl)oc23)[C@@H]1CO,,item: Constipation,B-cell malignancies,"oral, 150 mg, intermittent dosing",,patients with adverse event,33.3%
CCN(CC)CCCNC(=O)CSc1c2c(nc3cc(Cl)ccc13)CCCC2,Vero-E6,CellTiter-Glo ATP,,"concentration not given, 72 h, second round 5-point","relative to: DMSO 0%, hyamine -100%, more negative, more toxic",cytotoxicity efficacy,7.95%
CC(C)(c1ccc(O)cc1)c1ccc(O)cc1,,ultrafiltration,cow milk whey,2000 nM nominal in whole milk,,final permeate concentration,83.9 nM
NCCCC[C@@H]1NC(=O)[C@@H](Cc2c[nH]c3ccccc23)NC(=O)[C@H](c2ccccc2)NC(=O)[C@@H]2C[C@@H](OC(=O)NCCN)CN2C(=O)[C@H](Cc2ccccc2)NC(=O)[C@H](Cc2ccc(OCc3ccccc3)cc2)NC1=O,,,healthy volunteers,"subcutaneous, 600 µg twice daily, day 5, 2.00 h",,QTcI change from baseline,8.3 ms
CC(=O)c1c(C)c2cnc(Nc3ccc(C4CCN(CCS(C)(=O)=O)CC4)cn3)nc2n(C2CCCC2)c1=O,,,"human, plasma","oral, 100 mg, day 1 single dose",,MRT,12.1 h
CO[C@H]1C[C@@H]2CC[C@@H](C)[C@@](O)(O2)C(=O)C(=O)N2CCCC[C@H]2C(=O)O[C@H]([C@H](C)C[C@@H]2CC[C@@H](OC(=O)NCCOCCOCCOCCOCCOCCOCCOCCOCCC(=O)N3CCc4cc(Cn5nc(-c6ccc7oc(N)nc7c6)c6c(N)ncnc65)ccc4C3)[C@H](OC)C2)C[C@@H](O)[C@H](C)/C=C(\C)[C@@H](O)[C@@H](OC)C(=O)[C@H](C)C[C@H](C)/C=C/C=C/C=C/1C,,,patients with advanced solid tumours,"intravenous, 10 mg weekly, any grade",,AE leading to dose reduction,25%
CC1(C)[C@H](C(=O)OCc2cccc(Oc3ccccc3)c2)[C@@H]1C=C(Cl)Cl,,item: CYP2C9,"human, age 6 months, recombinant human CYP2C9",0.1 µM,,enzyme contribution to clearance,2.32%
O=c1nc(NO)ccn1[C@@H]1O[C@H](CO)[C@@H](O)[C@H]1O,,,rat amniotic fluid dialysate,"1000 ng/mL, more than 4 weeks, -20 °C, high concentration, together with: molnupiravir 250 ng/mL",,long-term stability,101.5 ± 0.39%

# Excerpt of the above:
Structure (SMILES),target or system,test,system,setting,how to read,quantity,result
NCCCC[C@@H]1NC(=O)[C@@H](Cc2c[nH]c3ccccc23)NC(=O)[C@H](c2ccccc2)NC(=O)[C@@H]2C[C@@H](OC(=O)NCCN)CN2C(=O)[C@H](Cc2ccccc2)NC(=O)[C@H](Cc2ccc(OCc3ccccc3)cc2)NC1=O,,,healthy volunteers,"subcutaneous, 600 µg twice daily, day 5, 2.00 h",,QTcI change from baseline,8.3 ms
CC(=O)c1c(C)c2cnc(Nc3ccc(C4CCN(CCS(C)(=O)=O)CC4)cn3)nc2n(C2CCCC2)c1=O,,,"human, plasma","oral, 100 mg, day 1 single dose",,MRT,12.1 h
CO[C@H]1C[C@@H]2CC[C@@H](C)[C@@](O)(O2)C(=O)C(=O)N2CCCC[C@H]2C(=O)O[C@H]([C@H](C)C[C@@H]2CC[C@@H](OC(=O)NCCOCCOCCOCCOCCOCCOCCOCCOCCC(=O)N3CCc4cc(Cn5nc(-c6ccc7oc(N)nc7c6)c6c(N)ncnc65)ccc4C3)[C@H](OC)C2)C[C@@H](O)[C@H](C)/C=C(\C)[C@@H](O)[C@@H](OC)C(=O)[C@H](C)C[C@H](C)/C=C/C=C/C=C/1C,,,patients with advanced solid tumours,"intravenous, 10 mg weekly, any grade",,AE leading to dose reduction,25%
CC1(C)[C@H](C(=O)OCc2cccc(Oc3ccccc3)c2)[C@@H]1C=C(Cl)Cl,,item: CYP2C9,"human, age 6 months, recombinant human CYP2C9",0.1 µM,,enzyme contribution to clearance,2.32%
